Measured values of several laboratories.
Numbered parts are unrelated; each lists some results of a single study. “And” joins repeats or separate records; there may be more than shown.
UniProt P50613, sequence (whole entry, looked up): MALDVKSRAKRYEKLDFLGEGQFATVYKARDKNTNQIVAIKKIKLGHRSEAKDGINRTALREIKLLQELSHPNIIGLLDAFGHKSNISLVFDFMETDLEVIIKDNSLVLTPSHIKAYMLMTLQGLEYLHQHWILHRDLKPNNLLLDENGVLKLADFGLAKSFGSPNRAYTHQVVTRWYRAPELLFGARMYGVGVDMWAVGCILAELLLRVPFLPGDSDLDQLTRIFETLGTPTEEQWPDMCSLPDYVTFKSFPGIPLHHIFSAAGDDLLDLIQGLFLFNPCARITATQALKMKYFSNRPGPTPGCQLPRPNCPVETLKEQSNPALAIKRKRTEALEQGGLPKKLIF
UniProt Q8TF76, sequence (whole entry, looked up): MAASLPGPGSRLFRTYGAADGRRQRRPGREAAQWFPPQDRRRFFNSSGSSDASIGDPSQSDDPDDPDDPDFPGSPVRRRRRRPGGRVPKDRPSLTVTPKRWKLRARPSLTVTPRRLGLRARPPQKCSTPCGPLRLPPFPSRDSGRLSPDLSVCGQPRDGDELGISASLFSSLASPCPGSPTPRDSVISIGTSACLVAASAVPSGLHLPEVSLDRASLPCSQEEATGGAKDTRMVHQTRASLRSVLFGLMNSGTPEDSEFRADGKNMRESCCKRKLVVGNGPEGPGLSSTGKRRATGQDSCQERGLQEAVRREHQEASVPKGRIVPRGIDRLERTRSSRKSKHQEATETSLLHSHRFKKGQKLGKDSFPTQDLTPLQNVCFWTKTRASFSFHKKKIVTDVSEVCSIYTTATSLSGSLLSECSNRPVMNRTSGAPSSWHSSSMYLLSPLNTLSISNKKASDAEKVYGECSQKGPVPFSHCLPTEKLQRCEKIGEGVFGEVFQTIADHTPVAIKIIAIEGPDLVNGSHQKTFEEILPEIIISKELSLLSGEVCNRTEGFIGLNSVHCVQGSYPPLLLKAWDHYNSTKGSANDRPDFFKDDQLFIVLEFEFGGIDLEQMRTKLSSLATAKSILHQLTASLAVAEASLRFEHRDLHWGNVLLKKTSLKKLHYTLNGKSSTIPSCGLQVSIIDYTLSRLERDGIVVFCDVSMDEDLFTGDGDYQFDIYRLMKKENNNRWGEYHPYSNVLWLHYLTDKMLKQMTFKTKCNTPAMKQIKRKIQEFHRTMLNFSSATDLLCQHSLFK
UniProt P42681, sequence (whole entry, looked up): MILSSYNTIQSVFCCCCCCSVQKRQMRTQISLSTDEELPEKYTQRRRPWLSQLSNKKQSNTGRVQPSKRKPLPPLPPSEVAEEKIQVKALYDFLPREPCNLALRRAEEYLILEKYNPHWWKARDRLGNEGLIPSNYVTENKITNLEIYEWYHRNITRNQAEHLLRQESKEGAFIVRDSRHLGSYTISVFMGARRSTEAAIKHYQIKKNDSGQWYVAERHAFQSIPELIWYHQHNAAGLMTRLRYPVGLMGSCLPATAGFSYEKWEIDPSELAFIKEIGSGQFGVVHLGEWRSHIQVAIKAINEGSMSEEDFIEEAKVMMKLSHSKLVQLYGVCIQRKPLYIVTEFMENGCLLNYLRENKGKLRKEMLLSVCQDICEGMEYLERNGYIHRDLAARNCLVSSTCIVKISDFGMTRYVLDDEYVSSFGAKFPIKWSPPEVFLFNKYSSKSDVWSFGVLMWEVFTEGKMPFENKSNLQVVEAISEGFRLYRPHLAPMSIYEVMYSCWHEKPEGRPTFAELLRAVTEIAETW
UniProt P49841, sequence (whole entry, looked up): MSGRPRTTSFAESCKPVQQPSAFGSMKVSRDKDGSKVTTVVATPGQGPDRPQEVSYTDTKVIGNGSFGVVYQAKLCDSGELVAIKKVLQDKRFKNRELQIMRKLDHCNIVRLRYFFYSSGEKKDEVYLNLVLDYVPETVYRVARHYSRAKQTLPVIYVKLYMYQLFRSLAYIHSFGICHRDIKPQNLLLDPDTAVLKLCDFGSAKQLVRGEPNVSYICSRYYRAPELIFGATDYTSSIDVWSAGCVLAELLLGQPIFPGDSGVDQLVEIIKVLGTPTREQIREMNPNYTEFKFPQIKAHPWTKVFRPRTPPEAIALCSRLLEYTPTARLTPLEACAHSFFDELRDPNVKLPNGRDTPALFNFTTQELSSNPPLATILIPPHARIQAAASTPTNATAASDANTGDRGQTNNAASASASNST
UniProt Q9UKE5, sequence (whole entry, looked up): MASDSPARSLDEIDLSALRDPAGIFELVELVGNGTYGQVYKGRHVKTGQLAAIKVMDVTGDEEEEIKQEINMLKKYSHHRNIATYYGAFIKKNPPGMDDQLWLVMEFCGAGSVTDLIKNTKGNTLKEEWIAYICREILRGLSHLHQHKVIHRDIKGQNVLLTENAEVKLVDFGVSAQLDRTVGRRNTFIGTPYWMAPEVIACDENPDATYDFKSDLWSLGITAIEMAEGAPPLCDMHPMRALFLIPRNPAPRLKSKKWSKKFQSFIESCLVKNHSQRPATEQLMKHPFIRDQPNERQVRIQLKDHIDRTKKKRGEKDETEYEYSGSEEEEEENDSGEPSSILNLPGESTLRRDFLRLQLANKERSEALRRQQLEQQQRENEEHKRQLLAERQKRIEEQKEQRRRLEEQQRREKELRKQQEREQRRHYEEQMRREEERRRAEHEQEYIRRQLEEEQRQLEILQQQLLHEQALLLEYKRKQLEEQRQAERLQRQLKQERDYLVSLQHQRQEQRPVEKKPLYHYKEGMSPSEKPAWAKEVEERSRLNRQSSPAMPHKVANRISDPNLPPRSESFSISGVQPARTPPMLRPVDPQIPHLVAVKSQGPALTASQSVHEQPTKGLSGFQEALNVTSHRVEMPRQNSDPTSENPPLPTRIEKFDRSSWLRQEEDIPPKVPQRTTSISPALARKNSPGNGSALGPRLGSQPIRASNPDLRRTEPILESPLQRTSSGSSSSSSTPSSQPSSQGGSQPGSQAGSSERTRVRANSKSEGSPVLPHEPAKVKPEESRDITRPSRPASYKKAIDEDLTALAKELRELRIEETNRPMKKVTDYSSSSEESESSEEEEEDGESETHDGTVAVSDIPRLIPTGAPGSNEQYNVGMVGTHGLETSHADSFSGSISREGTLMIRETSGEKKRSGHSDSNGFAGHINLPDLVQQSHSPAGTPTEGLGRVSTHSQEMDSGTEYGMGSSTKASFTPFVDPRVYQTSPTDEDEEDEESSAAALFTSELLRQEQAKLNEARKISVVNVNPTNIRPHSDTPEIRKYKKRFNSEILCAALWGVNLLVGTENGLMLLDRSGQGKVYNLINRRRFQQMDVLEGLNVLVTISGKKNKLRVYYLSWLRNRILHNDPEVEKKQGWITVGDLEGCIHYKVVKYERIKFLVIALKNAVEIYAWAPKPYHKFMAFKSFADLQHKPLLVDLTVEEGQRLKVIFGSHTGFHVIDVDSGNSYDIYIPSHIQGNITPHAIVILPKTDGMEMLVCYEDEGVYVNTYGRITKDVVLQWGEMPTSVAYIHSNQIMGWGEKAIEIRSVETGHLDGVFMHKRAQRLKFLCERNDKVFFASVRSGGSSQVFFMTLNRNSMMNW
UniProt Q9UEE5, sequence (whole entry, looked up): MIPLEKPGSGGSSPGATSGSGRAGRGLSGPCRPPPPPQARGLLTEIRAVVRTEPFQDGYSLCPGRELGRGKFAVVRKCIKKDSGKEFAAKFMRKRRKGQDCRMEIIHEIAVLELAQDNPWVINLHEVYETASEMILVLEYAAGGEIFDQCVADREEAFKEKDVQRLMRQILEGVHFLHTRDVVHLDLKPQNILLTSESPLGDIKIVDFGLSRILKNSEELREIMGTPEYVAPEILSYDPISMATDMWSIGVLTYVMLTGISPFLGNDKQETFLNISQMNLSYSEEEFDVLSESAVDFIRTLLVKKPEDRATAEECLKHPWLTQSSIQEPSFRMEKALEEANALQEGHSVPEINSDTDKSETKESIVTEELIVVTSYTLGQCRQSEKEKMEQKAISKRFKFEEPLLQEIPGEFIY
UniProt P0C264, sequence (whole entry, looked up): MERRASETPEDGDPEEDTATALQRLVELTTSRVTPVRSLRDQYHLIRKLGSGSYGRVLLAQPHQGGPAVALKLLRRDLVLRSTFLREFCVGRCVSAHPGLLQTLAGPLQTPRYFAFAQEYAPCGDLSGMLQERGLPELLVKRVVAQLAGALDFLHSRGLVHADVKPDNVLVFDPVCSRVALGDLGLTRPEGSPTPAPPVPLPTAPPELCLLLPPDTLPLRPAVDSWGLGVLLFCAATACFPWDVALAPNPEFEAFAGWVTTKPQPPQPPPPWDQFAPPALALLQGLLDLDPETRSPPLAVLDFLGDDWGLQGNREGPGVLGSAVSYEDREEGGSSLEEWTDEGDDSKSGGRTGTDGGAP
UniProt Q09013, sequence (whole entry, looked up): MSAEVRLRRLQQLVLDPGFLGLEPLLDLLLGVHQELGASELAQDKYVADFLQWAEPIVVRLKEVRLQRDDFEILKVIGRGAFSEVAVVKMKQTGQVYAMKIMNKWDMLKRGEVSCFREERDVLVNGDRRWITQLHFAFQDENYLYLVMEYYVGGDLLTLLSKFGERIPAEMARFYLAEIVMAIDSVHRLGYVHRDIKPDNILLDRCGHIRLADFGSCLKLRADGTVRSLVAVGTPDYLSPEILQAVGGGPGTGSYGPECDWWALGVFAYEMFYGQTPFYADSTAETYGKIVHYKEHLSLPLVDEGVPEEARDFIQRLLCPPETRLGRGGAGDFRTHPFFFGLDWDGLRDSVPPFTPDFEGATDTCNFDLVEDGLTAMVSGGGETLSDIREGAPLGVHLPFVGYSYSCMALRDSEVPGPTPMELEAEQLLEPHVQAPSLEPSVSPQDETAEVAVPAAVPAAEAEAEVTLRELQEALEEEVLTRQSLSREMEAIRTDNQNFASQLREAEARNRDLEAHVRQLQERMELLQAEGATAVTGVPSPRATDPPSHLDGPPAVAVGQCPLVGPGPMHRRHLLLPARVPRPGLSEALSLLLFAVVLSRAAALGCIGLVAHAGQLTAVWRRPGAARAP

Block 1 — technique: differential scanning fluorimetry; tested at: concentration not given; setting: unit not given; baseline: WDR5 alone; measurement: ΔTm
Target: WD repeat-containing protein 5 (WDR5, Homo sapiens, UniProt P61964)
C[C@@H]1CN(c2ccc(-c3cc(C(=O)NCCOCCOCCOCCOCCNC(=O)/C=C/c4[nH]cc(C(=O)N[C@@H](CC(N)=O)c5ccc(F)c(Cl)c5)c4-c4ccc(Cl)cc4F)ccc3F)cc2NC(=O)c2c[nH]c(=O)cc2C(F)(F)F)C[C@H](C)N1C: 10.8 and 10.3 and 10.7 and 10.5 and 10.4 and 10.6
C[C@@H]1CN(c2ccc(-c3cc(C(=O)NCCCNC(=O)/C=C/c4[nH]cc(C(=O)N[C@@H](CC(N)=O)c5ccc(F)c(Cl)c5)c4-c4ccc(Cl)cc4F)ccc3F)cc2NC(=O)c2c[nH]c(=O)cc2C(F)(F)F)C[C@H](C)N1C: 5.7 and 5.78 and 6.27 and 6.23 and 5.79 and 5.98 and 5.92 and 5.56
C[C@@H]1CN(c2ccc(-c3cc(C(=O)NCCOCCOCCOCCOCCNC(=O)Cn4cc(-c5[nH]cc(C(=O)N[C@@H](CC(N)=O)c6ccc(F)c(Cl)c6)c5-c5ccc(Cl)cc5F)cn4)ccc3F)cc2NC(=O)c2c[nH]c(=O)cc2C(F)(F)F)C[C@H](C)N1C: 13.5 and 13.1 and 13.7 and 13.2 and 13.4 and 13.6 and 13.3

Block 2 — observed: enzyme activity; action: inhibitor; tested at: 0.5 µM; baseline: control; measurement: remaining activity
SMILES: CC#CC(=O)Nc1cc2c(Nc3ccc(F)c(Cl)c3)ncnc2cn1
Calcium/calmodulin-dependent protein kinase type 1D (CAMK1D, Homo sapiens, UniProt Q8IU85): 107%
Proto-oncogene tyrosine-protein kinase receptor Ret (RET, Homo sapiens, UniProt P07949): 84.3%
Mitogen-activated protein kinase kinase kinase 8 (MAP3K8, Homo sapiens, UniProt P41279): 94.2%
Serine/threonine-protein kinase N2 (PKN2, Homo sapiens, UniProt Q16513): 95%
Myotonin-protein kinase (DMPK, Homo sapiens, UniProt Q09013): 104%
Mitogen-activated protein kinase kinase kinase 2 (MAP3K2, Homo sapiens, UniProt Q9Y2U5): 107%
Cyclin-dependent kinase 7 (CDK7, Homo sapiens, UniProt P50613): 101%
Cyclin-dependent kinase 2, with cyclin A (CDK2, Homo sapiens, UniProt P24941): 97.8%
Casein kinase II subunit alpha' (CSNK2A2, Homo sapiens, UniProt P19784): 96.5%
G protein-coupled receptor kinase 5 (GRK5, Homo sapiens, UniProt P34947): 105%
Homeodomain-interacting protein kinase 3 (HIPK3, Homo sapiens, UniProt Q9H422): 92.9%
Serine/threonine-protein kinase Nek9 (NEK9, Homo sapiens, UniProt Q8TD19): 104%
NT-3 growth factor receptor (NTRK3, Homo sapiens, UniProt Q16288): 95.3%
Proto-oncogene tyrosine-protein kinase ROS (ROS1, Homo sapiens, UniProt P08922): 91.3%
Calcium/calmodulin-dependent protein kinase type 1G (CAMK1G, Homo sapiens, UniProt Q96NX5): 99.2%
Rho-associated protein kinase 2 (ROCK2, Homo sapiens, UniProt O75116): 98.7%
Serine/threonine-protein kinase BRSK1 (BRSK1, Homo sapiens, UniProt Q8TDC3): 102%
Serine/threonine-protein kinase D1 (PRKD1, Homo sapiens, UniProt Q15139): 98.7%
Dual specificity tyrosine-phosphorylation-regulated kinase 4 (DYRK4, Homo sapiens, UniProt Q9NR20): 98%
Aurora kinase A (AURKA, Homo sapiens, UniProt O14965): 96.5%
STE20-like serine/threonine-protein kinase (SLK, Homo sapiens, UniProt Q9H2G2): 93.6%
Protein-tyrosine kinase 2-beta (PTK2B, Homo sapiens, UniProt Q14289): 94.1%
Mitogen-activated protein kinase 10 (MAPK10, Homo sapiens, UniProt P53779): 85.4%

Block 3 — technique: competition with immobilised ligand; tested at: 1 µM; measurement: remaining binding
SMILES: CCCOc1ccc([C@H]2[C@H](C(=O)O)[C@@H](c3ccc4c(c3)OCO4)CN2CC(=O)Nc2c(CC)cccc2CC)cc1
TRAF2 and NCK-interacting protein kinase (TNIK, Homo sapiens, UniProt Q9UKE5); cell-free assay: 88%
cAMP-dependent protein kinase catalytic subunit beta (PRKACB, Homo sapiens, UniProt P22694); cell-free assay: 87%
Mitogen-activated protein kinase kinase kinase 10 (MAP3K10, Homo sapiens, UniProt Q02779); cell-free assay: 100%
Cyclin-dependent kinase-like 1 (CDKL1, Homo sapiens, UniProt Q00532); cell-free assay: 66%
Serine/threonine-protein kinase 33 (STK33, Homo sapiens, UniProt Q9BYT3); cell-free assay: 65%
Mast/stem cell growth factor receptor Kit (KIT, Homo sapiens, UniProt P10721, T670I/V559D); cell-free assay: 87%
Uncharacterized serine/threonine-protein kinase SBK3 (SBK3, Homo sapiens, UniProt P0C264); cell-free assay: 94%
Wee1-like protein kinase 2 (WEE2, Homo sapiens, UniProt P0C1S8); cell-free assay: 85%
Mitogen-activated protein kinase kinase kinase 1 (MAP3K1, Homo sapiens, UniProt Q13233); cell-free assay: 71%
Death-associated protein kinase 2 (DAPK2, Homo sapiens, UniProt Q9UIK4); cell-free assay: 100%
Tyrosine-protein kinase Fgr (FGR, Homo sapiens, UniProt P09769); cell-free assay: 98%
Mitogen-activated protein kinase 3 (MAPK3, Homo sapiens, UniProt P27361); cell-free assay: 93%
Ephrin type-A receptor 3 (EPHA3, Homo sapiens, UniProt P29320); cell-free assay: 86%
Tyrosine-protein kinase TXK (TXK, Homo sapiens, UniProt P42681); binding: 85%
Serine/threonine-protein kinase 32C (STK32C, Homo sapiens, UniProt Q86UX6); cell-free assay: 100%

Block 4 — observed: kinase activity; action: inhibitor; tested at: 1 µM; measurement: remaining activity
SMILES: CC(C)S(=O)(=O)c1ccc2nccc(Nc3ccc4sc(C5CCCC5)nc4c3)c2c1.Cl
Serine/threonine-protein kinase 17A (STK17A, Homo sapiens, UniProt Q9UEE5): 109%
Ephrin type-A receptor 5 (EPHA5, Homo sapiens, UniProt P54756): 99%
Mitogen-activated protein kinase kinase kinase 21 (MAP3K21, Homo sapiens, UniProt Q5TCX8): 86%
Tyrosine-protein kinase ITK/TSK (ITK, Homo sapiens, UniProt Q08881): 91%
NUAK family SNF1-like kinase 1 (NUAK1, Homo sapiens, UniProt O60285): 113%
Serine/threonine-protein kinase haspin (HASPIN, Homo sapiens, UniProt Q8TF76): 85%
Protein-tyrosine kinase 6 (PTK6, Homo sapiens, UniProt Q13882): 26%
Cyclin-dependent kinase 7 (CDK7, Homo sapiens, UniProt P50613): 105%
Dual specificity mitogen-activated protein kinase kinase 6 (MAP2K6, Homo sapiens, UniProt P52564): 88%
Serine/threonine-protein kinase Nek1 (NEK1, Homo sapiens, UniProt Q96PY6): 86%
Glycogen synthase kinase-3 beta (GSK3B, Homo sapiens, UniProt P49841): 111%
